Experimental data gathered from unrelated publications.
Protocols differ between the studies behind these lines.

Substance | organism | test | test system | conditions | MIC
Cc1ccc(NCc2ccc(Oc3ccccn3)cc2)cc1 | Mycobacterium tuberculosis |  | H37Rv, GAST-Fe medium | 2 weeks, pH 6.6 | 43 µM
COc1ccc2ncc(F)c(CCN3CCC(/C=C\c4ccc(C)cc4)CC3)c2n1 | Salmonella enterica | microbial growth, broth dilution | ATCC14028 TYPHIMURIUM |  | ≥ 64 µg/mL
pneumocandin H | Candida tropicalis | broth microdilution, resazurin | ATCC 750 | 24 h, 35 °C | 1.6 µg/mL
c1ccc(NCc2ccc(Oc3ccccn3)cc2)cc1 | Mycobacterium tuberculosis |  | H37Rv, GAST-Fe medium | 1 weeks, pH 6.6 | 25 µM
CCc1cc(=O)c2c(OCC(O)CN3CCC(C)CC3)c3ccoc3c(OC)c2o1 (stereo not shown) | Staphylococcus epidermidis | broth microdilution | ATCC 35984 | 19 h, 35 °C | > 256 µg/mL
Cc1ccc(C2SCC(=O)N2S(=O)(=O)c2ccc(C)cc2)cc1 (stereo not shown) | Salmonella enterica | microbial growth, broth dilution | TYPHIMURIUM |  | > 256 µg/mL
COc1cccc(NCc2ccc(Oc3ccccn3)cc2)c1 | Mycobacterium tuberculosis |  | H37Rv, 7H9/ADC/Tween medium | 2 weeks | > 50 µM
COc1ccc(-c2n(CC(=O)OC3CC(C)CCC3C(C)C)c3ccccc3[n+]2C)cc1 (stereo not shown) | Mycolicibacterium smegmatis | microbial growth |  |  | 5 µM
CC1(C)S[C@@H]2[C@H](NC(=O)[C@H](N)c3ccccc3)C(=O)N2[C@H]1C(=O)O | Cutibacterium acnes | broth microdilution | ATCC 6919 | 24 h, 37 °C | 7.5 µg/mL
Cc1ccc(S(=O)(=O)N2C(=O)CSC2c2ccccc2Cl)cc1 (stereo not shown) | Salmonella enterica | microbial growth, broth dilution | TYPHIMURIUM |  | 64 µg/mL
CN1CC(O)=C(C(=O)NC(C(=O)NC2C(=O)N3C2SC(C)(C)C3C(=O)O)c2ccccc2)C1=O (stereo not shown) | Escherichia coli | broth microdilution | BW25113, Mueller-Hinton broth | added: 2,2'-bipyridyl 30 µg/mL | 100 µg/mL
COC(=O)c1ccc(NC(=O)c2[nH]c(C)c(Cl)c2Cl)c(N2CCC[C@H](N)C2)c1.Cl | Enterococcus faecium | microbial growth, broth dilution | ATCC35667 |  | 8 µg/mL
Brc1cccc(NCc2ccc(Oc3ccccn3)cc2)c1 | Mycobacterium tuberculosis |  | H37Rv, 7H9/ADC/Tween medium | 2 weeks | 70 µM
Cc1ccc(S(=O)(=O)N2C(=O)CSC2c2cccc(Cl)c2)cc1 (stereo not shown) | Salmonella enterica | microbial growth, broth dilution | TYPHIMURIUM |  | 16 µg/mL
Brc1ccc(NCc2ccc(Oc3ccccn3)cc2)cc1 | Mycobacterium tuberculosis |  | H37Rv, 7H9/ADC/Tween medium | 1 week | 35 µM
CC1(C)SC2C(NC(=O)C(NC(=O)C3=C(O)C(Cc4ccsc4)NC3=O)c3ccccc3)C(=O)N2C1C(=O)O (stereo not shown) | Escherichia coli | broth microdilution | BW25113, Mueller-Hinton broth |  | 50 µg/mL
CCc1cc(=O)c2c(OCC(O)CN(CC)CC)c3ccoc3c(OC)c2o1 (stereo not shown) | Staphylococcus epidermidis | broth microdilution | ATCC 35984 | 19 h, 35 °C | > 256 µg/mL
Cc1ccc(S(=O)(=O)N2C(=O)CSC2c2cccc(C)c2)cc1 (stereo not shown) | Salmonella enterica | microbial growth, broth dilution | TYPHIMURIUM |  | 64 µg/mL
CC1(C)SC2C(NC(=O)C(NC(=O)C3=C(O)C(Cc4ccc([N+](=O)[O-])cc4)NC3=O)c3ccccc3)C(=O)N2C1C(=O)O (stereo not shown) | Escherichia coli | broth microdilution | BW25113, Mueller-Hinton broth | added: CCCP 50 µg/mL | 25 µg/mL
Clc1ccc(NCc2ccc(Oc3ccccn3)cc2)cc1 | Mycobacterium tuberculosis |  | H37Rv, 7H9/ADC/Tween medium | 1 weeks | 40 µM
Polymyxin B | Bacillus subtilis | broth microdilution | BR 151, Mueller-Hinton broth | 18 h, 37 °C | 4 µg/mL
COC(=O)c1ccc(NC(=O)c2[nH]c(C)c(Cl)c2Cl)c(N2CCCC(CN)C2)c1.Cl (stereo not shown) | Enterococcus faecium | microbial growth, broth dilution | ATCC35667 |  | 1 µg/mL

For quick reference, copied from above:
Substance | organism | test | test system | conditions | MIC
Cc1ccc(NCc2ccc(Oc3ccccn3)cc2)cc1 | Mycobacterium tuberculosis |  | H37Rv, GAST-Fe medium | 2 weeks, pH 6.6 | 43 µM
Polymyxin B | Bacillus subtilis | broth microdilution | BR 151, Mueller-Hinton broth | 18 h, 37 °C | 4 µg/mL
